Results pooled from the literature.
Every numbered part comes from another study and shows a few of its results, in no order. “And” joins repeats or separate records; there may be more than shown.
Sequence of UniProt Q99808 (whole entry, looked up): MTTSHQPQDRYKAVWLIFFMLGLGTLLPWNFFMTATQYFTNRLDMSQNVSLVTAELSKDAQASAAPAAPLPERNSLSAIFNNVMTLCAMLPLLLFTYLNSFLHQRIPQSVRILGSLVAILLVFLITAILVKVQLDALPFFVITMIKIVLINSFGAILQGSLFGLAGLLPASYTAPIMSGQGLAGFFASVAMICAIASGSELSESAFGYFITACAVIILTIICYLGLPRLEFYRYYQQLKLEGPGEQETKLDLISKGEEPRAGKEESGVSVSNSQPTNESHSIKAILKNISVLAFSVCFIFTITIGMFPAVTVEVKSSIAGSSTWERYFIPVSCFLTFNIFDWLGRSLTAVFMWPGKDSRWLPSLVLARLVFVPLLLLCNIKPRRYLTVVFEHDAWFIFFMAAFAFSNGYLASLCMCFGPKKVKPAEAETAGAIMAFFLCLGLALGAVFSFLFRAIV
Sequence of UniProt Q96PY6 (whole entry, looked up): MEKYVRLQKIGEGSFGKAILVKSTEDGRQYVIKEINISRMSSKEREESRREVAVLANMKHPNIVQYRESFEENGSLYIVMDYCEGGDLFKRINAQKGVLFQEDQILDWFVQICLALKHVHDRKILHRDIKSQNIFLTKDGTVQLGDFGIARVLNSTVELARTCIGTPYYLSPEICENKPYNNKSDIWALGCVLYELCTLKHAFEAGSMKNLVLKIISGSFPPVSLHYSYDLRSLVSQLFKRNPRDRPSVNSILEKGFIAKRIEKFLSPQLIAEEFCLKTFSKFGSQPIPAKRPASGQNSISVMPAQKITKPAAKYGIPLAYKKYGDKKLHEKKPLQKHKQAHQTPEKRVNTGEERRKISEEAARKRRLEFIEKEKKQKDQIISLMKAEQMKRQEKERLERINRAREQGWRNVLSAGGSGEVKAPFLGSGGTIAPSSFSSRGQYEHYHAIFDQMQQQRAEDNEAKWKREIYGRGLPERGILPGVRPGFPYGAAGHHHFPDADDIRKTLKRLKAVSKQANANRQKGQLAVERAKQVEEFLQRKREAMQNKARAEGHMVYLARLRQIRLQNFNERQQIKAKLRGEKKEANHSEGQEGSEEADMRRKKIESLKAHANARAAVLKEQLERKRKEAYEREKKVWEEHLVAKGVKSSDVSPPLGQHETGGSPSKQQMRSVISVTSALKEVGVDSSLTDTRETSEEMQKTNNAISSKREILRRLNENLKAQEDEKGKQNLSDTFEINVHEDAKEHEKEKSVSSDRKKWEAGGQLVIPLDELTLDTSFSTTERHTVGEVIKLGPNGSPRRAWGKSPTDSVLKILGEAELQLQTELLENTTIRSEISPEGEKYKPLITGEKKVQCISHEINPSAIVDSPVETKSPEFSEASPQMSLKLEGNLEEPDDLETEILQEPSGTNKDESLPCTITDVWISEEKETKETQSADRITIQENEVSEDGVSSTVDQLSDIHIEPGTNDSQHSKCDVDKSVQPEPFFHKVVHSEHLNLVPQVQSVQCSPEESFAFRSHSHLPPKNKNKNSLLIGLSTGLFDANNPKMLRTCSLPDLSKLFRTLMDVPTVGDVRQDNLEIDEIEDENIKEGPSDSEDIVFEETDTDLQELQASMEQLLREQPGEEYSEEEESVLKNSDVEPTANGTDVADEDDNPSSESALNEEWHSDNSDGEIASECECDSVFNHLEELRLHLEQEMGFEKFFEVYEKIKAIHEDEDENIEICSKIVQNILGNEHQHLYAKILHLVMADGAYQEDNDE
Sequence of UniProt P49841 (whole entry, looked up): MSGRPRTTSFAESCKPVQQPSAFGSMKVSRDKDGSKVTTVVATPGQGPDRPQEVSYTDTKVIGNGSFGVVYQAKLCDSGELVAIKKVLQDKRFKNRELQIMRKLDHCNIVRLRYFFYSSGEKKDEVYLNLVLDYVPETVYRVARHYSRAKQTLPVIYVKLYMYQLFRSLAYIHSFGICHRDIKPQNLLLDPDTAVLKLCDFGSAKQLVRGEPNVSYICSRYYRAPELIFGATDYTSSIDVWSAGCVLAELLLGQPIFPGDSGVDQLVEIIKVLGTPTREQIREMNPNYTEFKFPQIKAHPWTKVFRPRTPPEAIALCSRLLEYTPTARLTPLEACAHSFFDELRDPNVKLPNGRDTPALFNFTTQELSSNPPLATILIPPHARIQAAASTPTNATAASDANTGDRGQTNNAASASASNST
Sequence of UniProt Q12866 (whole entry, looked up): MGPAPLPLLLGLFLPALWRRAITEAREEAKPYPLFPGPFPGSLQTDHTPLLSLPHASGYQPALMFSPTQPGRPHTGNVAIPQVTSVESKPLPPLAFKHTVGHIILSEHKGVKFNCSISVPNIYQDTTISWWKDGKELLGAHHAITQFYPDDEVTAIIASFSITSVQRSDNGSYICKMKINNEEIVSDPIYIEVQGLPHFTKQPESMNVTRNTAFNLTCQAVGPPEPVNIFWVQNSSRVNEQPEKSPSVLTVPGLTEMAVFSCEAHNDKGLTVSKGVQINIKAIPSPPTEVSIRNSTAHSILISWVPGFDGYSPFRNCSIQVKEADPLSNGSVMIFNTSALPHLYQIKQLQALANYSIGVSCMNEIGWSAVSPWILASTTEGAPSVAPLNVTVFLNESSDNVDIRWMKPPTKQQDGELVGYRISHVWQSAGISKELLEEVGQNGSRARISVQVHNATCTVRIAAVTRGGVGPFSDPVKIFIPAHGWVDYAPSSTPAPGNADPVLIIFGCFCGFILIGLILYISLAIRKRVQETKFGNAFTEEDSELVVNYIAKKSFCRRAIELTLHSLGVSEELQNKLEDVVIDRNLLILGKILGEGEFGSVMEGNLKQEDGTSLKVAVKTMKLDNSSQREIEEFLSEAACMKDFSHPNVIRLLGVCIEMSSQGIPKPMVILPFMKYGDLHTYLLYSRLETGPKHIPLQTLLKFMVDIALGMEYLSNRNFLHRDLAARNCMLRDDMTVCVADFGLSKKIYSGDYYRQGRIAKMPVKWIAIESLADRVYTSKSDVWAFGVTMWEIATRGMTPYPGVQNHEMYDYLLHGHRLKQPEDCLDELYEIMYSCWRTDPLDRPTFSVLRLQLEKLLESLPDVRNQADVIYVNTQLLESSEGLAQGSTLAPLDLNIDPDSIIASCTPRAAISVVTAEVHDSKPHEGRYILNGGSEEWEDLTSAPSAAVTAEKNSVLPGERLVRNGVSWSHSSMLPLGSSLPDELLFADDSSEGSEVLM
Sequence of UniProt Q04912 (whole entry, looked up): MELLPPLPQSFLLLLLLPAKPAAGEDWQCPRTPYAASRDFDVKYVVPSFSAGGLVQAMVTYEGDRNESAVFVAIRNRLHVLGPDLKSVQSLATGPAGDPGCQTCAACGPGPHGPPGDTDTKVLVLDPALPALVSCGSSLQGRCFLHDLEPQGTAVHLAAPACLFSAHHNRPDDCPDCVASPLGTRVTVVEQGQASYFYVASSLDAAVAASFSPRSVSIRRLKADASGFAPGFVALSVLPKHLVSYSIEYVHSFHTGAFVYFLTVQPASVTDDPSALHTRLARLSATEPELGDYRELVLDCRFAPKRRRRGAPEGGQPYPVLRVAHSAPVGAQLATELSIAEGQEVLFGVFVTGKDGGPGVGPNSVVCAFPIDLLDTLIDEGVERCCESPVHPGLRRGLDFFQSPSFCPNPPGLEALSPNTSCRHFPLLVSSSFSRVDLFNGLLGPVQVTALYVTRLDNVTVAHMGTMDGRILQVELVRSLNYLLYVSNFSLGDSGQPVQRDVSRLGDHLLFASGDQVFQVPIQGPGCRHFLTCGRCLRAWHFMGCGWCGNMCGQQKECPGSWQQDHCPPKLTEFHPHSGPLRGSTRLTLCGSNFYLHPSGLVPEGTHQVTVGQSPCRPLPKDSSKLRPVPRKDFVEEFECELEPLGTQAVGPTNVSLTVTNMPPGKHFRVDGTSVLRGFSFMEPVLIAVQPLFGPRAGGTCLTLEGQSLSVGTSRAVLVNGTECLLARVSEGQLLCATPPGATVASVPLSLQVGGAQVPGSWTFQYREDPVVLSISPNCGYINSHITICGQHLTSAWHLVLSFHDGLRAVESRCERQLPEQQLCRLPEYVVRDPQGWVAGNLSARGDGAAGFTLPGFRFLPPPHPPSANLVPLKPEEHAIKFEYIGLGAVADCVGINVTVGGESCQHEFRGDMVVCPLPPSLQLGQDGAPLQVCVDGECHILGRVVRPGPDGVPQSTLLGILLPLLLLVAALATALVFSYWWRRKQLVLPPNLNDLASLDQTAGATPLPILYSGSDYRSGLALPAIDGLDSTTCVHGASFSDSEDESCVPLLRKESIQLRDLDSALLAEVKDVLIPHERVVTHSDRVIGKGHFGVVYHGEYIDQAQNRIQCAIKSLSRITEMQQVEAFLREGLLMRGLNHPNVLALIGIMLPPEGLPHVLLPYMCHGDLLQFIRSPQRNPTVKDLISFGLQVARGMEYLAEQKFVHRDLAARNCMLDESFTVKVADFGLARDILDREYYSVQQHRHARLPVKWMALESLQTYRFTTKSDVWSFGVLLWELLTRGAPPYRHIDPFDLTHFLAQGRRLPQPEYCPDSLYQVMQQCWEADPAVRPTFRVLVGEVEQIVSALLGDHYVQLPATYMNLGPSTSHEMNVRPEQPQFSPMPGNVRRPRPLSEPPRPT
Sequence of UniProt Q8WTQ7 (whole entry, looked up): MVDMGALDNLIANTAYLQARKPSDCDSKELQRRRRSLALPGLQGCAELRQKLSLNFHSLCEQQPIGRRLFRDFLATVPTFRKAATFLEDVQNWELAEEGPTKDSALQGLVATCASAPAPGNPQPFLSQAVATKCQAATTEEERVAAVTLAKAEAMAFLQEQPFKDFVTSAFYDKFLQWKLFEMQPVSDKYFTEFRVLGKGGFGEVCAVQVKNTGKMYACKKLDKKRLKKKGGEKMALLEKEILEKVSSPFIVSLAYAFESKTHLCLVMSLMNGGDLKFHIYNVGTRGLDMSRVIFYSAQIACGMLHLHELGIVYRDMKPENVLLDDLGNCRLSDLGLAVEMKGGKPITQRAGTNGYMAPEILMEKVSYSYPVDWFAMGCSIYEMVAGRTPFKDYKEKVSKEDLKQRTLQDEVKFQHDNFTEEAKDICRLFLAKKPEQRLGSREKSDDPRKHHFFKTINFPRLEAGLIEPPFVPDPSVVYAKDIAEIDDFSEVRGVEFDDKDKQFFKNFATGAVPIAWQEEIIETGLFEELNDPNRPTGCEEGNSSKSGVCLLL

Study 1
SMILES: CCc1cnn2c(NCc3ccc[n+]([O-])c3)cc(N3CCCC[C@H]3CCO)nc12
Method: trypan blue exclusion
Time: 48 h
Baseline: untreated
For HH; 1 µM: viability read 0% and 1.3%.
HH; 10 µM — viability: 0%.
HH; 0.05 µM — viability: 5.6% and 2.7% and 4.54%.
The viability was 0.951% and 0% and 1.82% (HH; 0.5 µM).
The viability was 0.855% and 0% (HH; 0.1 µM).
HuT78; 0.0001 µM — viability: 102%.

Study 2
SMILES: C[C@@H]1[C@H](O)[C@@H](C)/C=C/C=C/C=C/C=C/C=C/C=C/C=C/[C@H](O[C@@H]2O[C@H](C)[C@@H](O)[C@H](N)[C@@H]2O)C[C@@H]2O[C@](O)(C[C@@H](O)C[C@@H](O)[C@H](O)CC[C@@H](O)C[C@@H](O)CC(=O)O[C@H]1C)C[C@H](O)[C@H]2C(=O)O
Cell line: THP-1
The inhibition was 0.65% and -0.38% and -0.53% and -5.39% and -1.44% and -0.54% (host cell growth; 1 µM).
For host cell growth; 0.2 µM: inhibition read -0.7% and -2.42% and -0.21% and -0.56% and -0.37% and -4.59%.
The inhibition was -1.01% and -1.61% and -0.94% and -0.93% and -3.19% and -0.19% (host cell growth; 0.002 µM).
It gave 61% for inhibition (2 µM, cytotoxicity).

Study 3
Species: human
Matrix: microsomes or S9
Tested at: 2 µM
Time: 0.5 h
`O=C1NN=C(c2ccc(F)cc2)Cn2c1cc1ccccc12` gave a remaining compound of 10.8%.
The remaining compound of `O=c1[nH]nc(-c2ccc(OCCN3CCCCC3)cc2)cc1-c1ccc(Cl)cc1` is reported as greater than 100%.
`CN(C(=O)c1cnc(N)nc1-c1ccccc1)C1CCCc2ccccc21` (stereo not drawn) has a remaining compound of 20.3%.
The remaining compound of `CN(C)c1nc(Cl)nc(Oc2ccc(=O)n(C)n2)n1` is reported as 87.1%.
`C[C@H](Nc1ncnc2[nH]cnc12)c1cc2cccc(Cl)c2c(=O)n1-c1ccccc1` has a remaining compound of 89.9%.
`O=C(c1ccc(Nc2cc(-n3cccc3)ncn2)cc1)N1CCN(Cc2ccc3c(c2)OCO3)CC1` has a remaining compound of 50%.

Study 4
Structure (SMILES): Cc1cc(Nc2cc(N3CCN(C)CC3)nc(Sc3ccc(NC(=O)C4CC4)cc3)n2)[nH]n1
Effect on: enzyme activity
Action: inhibitor
Tested at: 0.5 µM
Baseline: control
For ABL2 (Homo sapiens, UniProt P42684): remaining activity read 5.75%.
It gave 100% for remaining activity (CSNK1G3 (Homo sapiens, UniProt Q9Y6M4)).
For JAK3 (Homo sapiens, UniProt P52333): remaining activity read 91.8%.
For MAP2K2 (Homo sapiens, UniProt P36507): remaining activity read 91.3%.
It gave 18.6% for remaining activity (TAOK2 (Homo sapiens, UniProt Q9UL54)).
It gave 76% for remaining activity (RPS6KA2 (Homo sapiens, UniProt Q15349)).
The remaining activity was 101% (FRK (Homo sapiens, UniProt P42685)).
It gave 106% for remaining activity (MERTK (Homo sapiens, UniProt Q12866)).
CSNK1G2 (Homo sapiens, UniProt P78368) — remaining activity: 96.2%.
WEE1 (Homo sapiens, UniProt P30291) — remaining activity: 100%.
It gave 70.6% for remaining activity (FGFR3 (Homo sapiens, UniProt P22607)).
The remaining activity was 123% (ARAF (Homo sapiens, UniProt P10398)).
It gave 94.2% for remaining activity (NEK6 (Homo sapiens, UniProt Q9HC98)).
It gave 95.5% for remaining activity (GRK7 (Homo sapiens, UniProt Q8WTQ7)).
ULK3 (Homo sapiens, UniProt Q6PHR2) — remaining activity: 87.3%.
It gave 83.6% for remaining activity (MST1R (Homo sapiens, UniProt Q04912)).
It gave 96% for remaining activity (MAPK3 (Homo sapiens, UniProt P27361)).
ACVR1B (Homo sapiens, UniProt P36896) — remaining activity: 114%.
For NEK1 (Homo sapiens, UniProt Q96PY6): remaining activity read 67.6%.
GSK3B (Homo sapiens, UniProt P49841) — remaining activity: 104%.
It gave 111% for remaining activity (MAP3K14 (Homo sapiens, UniProt Q99558)).
The remaining activity was 102% (MAP3K5 (Homo sapiens, UniProt Q99683)).
The remaining activity was 101% (ULK2 (Homo sapiens, UniProt Q8IYT8)).
For TBK1 (Homo sapiens, UniProt Q9UHD2): remaining activity read 90.5%.

Study 5
SMILES: C[C@H](c1ccc(F)cc1)N(Cc1cccc(C(=O)O)c1)C(=O)c1cnc2ccccc2c1
Method: competition with immobilised ligand
Tested at: 1 µM
CSNK1A1 (Homo sapiens, UniProt P48729); cell-free assay — remaining binding: 100%.
It gave 100% for remaining binding (MAP4K5 (Homo sapiens, UniProt Q9Y4K4); cell-free assay).
For DYRK1A (Homo sapiens, UniProt Q13627); cell-free assay: remaining binding read 100%.
For PIK3CA (Homo sapiens, UniProt P42336, H1047Y); cell-free assay: remaining binding read 100%.
PIK3CD (Homo sapiens, UniProt O00329); cell-free assay — remaining binding: 100%.
CILK1 (Homo sapiens, UniProt Q9UPZ9); binding — remaining binding: 100%.
PIK3C2B (Homo sapiens, UniProt O00750); cell-free assay — remaining binding: 90%.
The remaining binding was 98% (EPHA5 (Homo sapiens, UniProt P54756); cell-free assay).

Mixed results
The Tmax of `O=C1CCC(N2Cc3cc(C4CCN(Cc5ccccc5)CC4)ccc3C2=O)C(=O)N1` (stereo not drawn) is reported as 30 min (ICR mouse, male, plasma; oral, 3.0 mg/kg).
For `COc1cc(C(=O)OCCCN2CCCN(CCCOC(=O)c3cc(OC)c(OC)c(OC)c3)CC2)cc(OC)c1OC`, the adenosine uptake was 0.977 and 0.672 and 1 and 1.08 and 1.04 and 1.14 and 0.818 (SLC29A1 (Homo sapiens, UniProt Q99808); inhibitor; 10 pM, unit not given, added: [3H]adenosine; baseline: normalised control).
The normalized BRET of `C=C(F)C(=O)N1CCN(c2nc(OC[C@@H]3CCCN3C)nc3c2CCN(c2cccc4cccc(Cl)c24)C3)C[C@@H]1CC#N` is reported as 103% (GTPase HRas (HRAS, Homo sapiens, UniProt P01112); binding, competitor, NanoBRET; HEK293; 2.5 µM).

Excerpt of the above (study 4):
For TBK1 (Homo sapiens, UniProt Q9UHD2): remaining activity read 90.5%.
For JAK3 (Homo sapiens, UniProt P52333): remaining activity read 91.8%.
It gave 76% for remaining activity (RPS6KA2 (Homo sapiens, UniProt Q15349)).
It gave 100% for remaining activity (CSNK1G3 (Homo sapiens, UniProt Q9Y6M4)).
ACVR1B (Homo sapiens, UniProt P36896) — remaining activity: 114%.
WEE1 (Homo sapiens, UniProt P30291) — remaining activity: 100%.
